Results pooled from the literature.
Each numbered part is a random draw from the data of one study; scales do not carry over between parts. Substitutions count along the parent as printed.

Series 1 — technique: protein binding microarray; molecule type: double-stranded DNA, one strand shown; sample: in vitro; tested at: not given; baseline: not given; reading: higher = stronger binding; endpoint: E-score
Target: Histone acetyltransferase KAT6A, winged helix 1, GST fusion (KAT6A, Homo sapiens, UniProt Q92794, residues 1-85)
Notes: 8-mer, flanks averaged, mean of 2 arrays, mostly near background
Construct (chain): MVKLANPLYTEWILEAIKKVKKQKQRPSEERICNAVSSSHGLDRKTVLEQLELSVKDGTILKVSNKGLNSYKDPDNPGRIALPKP
Oligonucleotide = CATCAGAC; result = -0.0892
Oligonucleotide = AAATCCTG; result = -0.286
Oligonucleotide = AGATGACG; result = 0.0273
Oligonucleotide = ATACTCGG; result = 0.113
Oligonucleotide = CTGAATTC; result = -0.273
Oligonucleotide = ATTTCACC; result = -0.184
Oligonucleotide = GCACTCGC; result = 0.207
Oligonucleotide = CGGGAGAA; result = 0.0703
Oligonucleotide = AAAGATCT; result = -0.116
Oligonucleotide = ACTCGTTA; result = -0.0789
Oligonucleotide = AAGCGGCA; result = 0.364
Oligonucleotide = GTGCCCAC; result = -0.0193
Oligonucleotide = AGCTAAAC; result = -0.117
Oligonucleotide = CATATCGC; result = 0.163
Oligonucleotide = CTAGAGCC; result = 0.086
Oligonucleotide = AGATTCAA; result = -0.198
Oligonucleotide = TGAACCAA; result = -0.318
Oligonucleotide = AATAGTTC; result = -0.053
Oligonucleotide = AGGATACA; result = -0.309
Oligonucleotide = CATACCCA; result = -0.242
Oligonucleotide = GATCAGAA; result = -0.131
Oligonucleotide = ATTGTCTG; result = -0.147
Oligonucleotide = CAGATCTC; result = -0.168
Oligonucleotide = GGCCGTTA; result = 0.25
Oligonucleotide = AGACTGAG; result = -0.146

Series 2 — technique: DHFR PCA, deep sequencing; sample: yeast; with: (+)-ABA 17 µM; baseline: wild-type fitted maximum; reading: higher = stronger binding; endpoint: relative binding score
Target: ABI1, truncated, D143A, DHFR fusion (Arabidopsis thaliana)
Notes: methotrexate growth selection, single substitutions
Parent: PYL1, truncated, DHFR fusion (Arabidopsis thaliana); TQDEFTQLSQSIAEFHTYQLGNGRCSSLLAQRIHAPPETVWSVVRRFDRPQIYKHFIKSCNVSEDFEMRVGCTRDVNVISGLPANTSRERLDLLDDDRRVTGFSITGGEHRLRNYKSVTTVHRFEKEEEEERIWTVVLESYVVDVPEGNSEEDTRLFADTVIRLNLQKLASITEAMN; partner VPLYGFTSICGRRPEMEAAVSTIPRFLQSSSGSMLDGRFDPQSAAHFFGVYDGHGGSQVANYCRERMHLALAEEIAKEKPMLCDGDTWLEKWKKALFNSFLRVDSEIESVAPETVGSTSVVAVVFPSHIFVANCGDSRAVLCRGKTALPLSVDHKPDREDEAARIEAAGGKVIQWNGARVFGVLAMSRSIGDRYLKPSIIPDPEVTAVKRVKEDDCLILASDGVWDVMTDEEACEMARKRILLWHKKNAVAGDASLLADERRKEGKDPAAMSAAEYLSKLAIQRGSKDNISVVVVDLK
Variant = D153A; result = 5%
Variant = L164F; result = 85.2%
Variant = Q167V; result = 65.8%
Variant = Q51D; result = 75.3%
Variant = A158G; result = 26.2%
Variant = R88Y; result = 83%
Variant = L29V; result = 83.7%
Variant = E152I; result = 66.2%
Variant = N22M; result = 82.6%
Variant = H110R; result = 13.8%

Series 3 — technique: RNA Bind-n-Seq; molecule type: RNA; sample: in vitro; tested at: 1 µM; notes: whole 134-nt RNA, ends assumed; with: 150 mM KCl; baseline: input library; reading: higher = stronger binding; endpoint: log2 enrichment
Target: Ras GTPase-activating protein-binding protein 1, C-terminal RGG region (G3BP1, Homo sapiens, UniProt Q13283)
Oligonucleotide = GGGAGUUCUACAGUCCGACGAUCCAAGUCCUGUGCUACACAUCGUAUGUACCGAAUCGGAGGAAAAAGGUUUUUUUGGAAAGUAUUAUGUUACGCCGUUCGGAUCUGCACUUCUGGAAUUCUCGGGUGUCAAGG; result = -1.82
Oligonucleotide = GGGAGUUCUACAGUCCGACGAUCCAAGUCCUGUGCUACACAUCGUAUGUACCGAAUCGGGUUUGGUUUGGGGUUUGGGGAAAGUAUUAUGUUACGCCGUUCGGAUCUGCACUUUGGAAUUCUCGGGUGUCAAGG; result = -0.00811
Oligonucleotide = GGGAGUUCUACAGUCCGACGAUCUCCUGUGCUACACAUCGUAUGUACCGAAUCGGGUUUUUUGGUUUUUUGGGGUUUUUUGGAAAGUAUUAUGUUACGCCGUUCGGAUCUGCAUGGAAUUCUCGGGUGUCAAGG; result = -0.621
Oligonucleotide = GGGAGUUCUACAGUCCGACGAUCCCUCAAGUCCUGUGCUACACAUCGUAUGUACCGAAUCGGGUGGGGUGGGUGGGAAAGUAUUAUGUUACGCCGUUCGGAUCUGCACUUCCAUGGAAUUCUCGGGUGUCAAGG; result = 1.36
Oligonucleotide = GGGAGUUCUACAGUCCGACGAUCAGUCCUGUGCUACACAUCGUAUGUACCGAAUCGGGCCCCCGGCCCCCGGGCCCCCGGAAAGUAUUAUGUUACGCCGUUCGGAUCUGCACUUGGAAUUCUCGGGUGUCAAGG; result = -1.67
Oligonucleotide = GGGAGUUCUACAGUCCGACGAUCCUGUGCUACACAUCGUAUGUACCGAAUCGGGGUUUUUUUGGGUUUUUUUGGGGUUUUUUUGGAAAGUAUUAUGUUACGCCGUUCGGAUCUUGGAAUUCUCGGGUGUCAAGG; result = -1.09
Oligonucleotide = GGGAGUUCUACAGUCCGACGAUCUCCUGUGCUACACAUCGUAUGUACCGAAUCAAACCCCCCCAAACCCCCCCAAAUUUAAAAAAGUAUUAUGUUACGCCGUUCGGAUCUGCAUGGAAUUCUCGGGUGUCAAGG; result = -0.747
Oligonucleotide = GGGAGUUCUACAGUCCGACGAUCAGUCCUGUGCUACACAUCGUAUGUACCGAAUCGGGUUUGGGUUUUUGGGAAAAAGGGAAAGUAUUAUGUUACGCCGUUCGGAUCUGCACUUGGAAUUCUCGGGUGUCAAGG; result = 0.666
Oligonucleotide = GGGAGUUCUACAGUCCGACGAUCCAAGUCCUGUGCUACACAUCGUAUGUACCGAAUCGGGGAAAGGGAAAGGGAAAGGGAAAGUAUUAUGUUACGCCGUUCGGAUCUGCACUUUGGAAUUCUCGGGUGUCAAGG; result = 1.39
Oligonucleotide = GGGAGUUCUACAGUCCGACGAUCAAGUCCUGUGCUACACAUCGUAUGUACCGAAUCGGAAAAAGGUUUUUUUGGUUUGGAAAGUAUUAUGUUACGCCGUUCGGAUCUGCACUUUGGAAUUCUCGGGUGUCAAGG; result = -2.41
Oligonucleotide = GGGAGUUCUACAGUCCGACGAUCUCAAGUCCUGUGCUACACAUCGUAUGUACCGAAUCGGAGGAAAAAGGUUUUUGGAAAGUAUUAUGUUACGCCGUUCGGAUCUGCACUUCCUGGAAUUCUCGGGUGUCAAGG; result = -1.35
Oligonucleotide = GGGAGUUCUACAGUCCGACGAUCGUCCUGUGCUACACAUCGUAUGUACCGAAUCGGAAAAAGGGAAAAAGGGGAAAAAGGGAAAGUAUUAUGUUACGCCGUUCGGAUCUGCACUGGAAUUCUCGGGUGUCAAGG; result = -0.885
Oligonucleotide = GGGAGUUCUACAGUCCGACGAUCUUCAAGGAAAAACAAGAGGAGCAGGCUCGCCUCCUUGAUGAACUGGCAGGCAAGCUACAAAGCCUAGACCUUUCAGCCGCUGCCGAAAUGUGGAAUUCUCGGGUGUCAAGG; result = -1.73
Oligonucleotide = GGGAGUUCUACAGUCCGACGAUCCCUGUGCUACACAUCGUAUGUACCGAAUCGGUUUUUUGGGUUUUUUGGGGUUUUUUGGGGAAAGUAUUAUGUUACGCCGUUCGGAUCUGCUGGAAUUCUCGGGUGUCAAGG; result = -1.54

Series 4 — Sequence: B1 (UBOX5 RING domain); technique: yeast two-hybrid; sample: yeast; notes: mostly zero background; baseline: not given; reading: higher = stronger interaction; endpoint: lacZ reporter activity
B1: UBOX5 RING domain (UniProt O94941); chain EQPGSILGPECASCKRVFSPYFKKEPVYQLPCGHLLCRPCLGEKQRSLPMTCTACQRPVASQDVLR
target = UBE2D1 UBC core domain (UniProt P51668); result = 0
target = UBE2S UBC core domain (UniProt Q16763); result = 0
target = UBE2C UBC core domain (UniProt O00762); result = 0
target = UBE2J1 UBC core domain (UniProt Q9Y385); result = 0
target = UBE2Z UBC core domain (UniProt Q9H832); result = 0
target = UBE2L3 UBC core domain (UniProt P68036); result = 0
target = UBE2I UBC core domain (UniProt P63279); result = 0
target = UBE2Q1 UBC core domain (UniProt Q7Z7E8); result = 0
target = UBE2G1 UBC core domain (UniProt P62253); result = 0

Series 5 — technique: universal PBM; molecule type: double-stranded DNA, one strand shown; sample: in vitro; tested at: 600 nM; reading: higher = stronger binding; endpoint: E-score
Target: Sal-like protein 4, full length isoform A (SALL4, Homo sapiens, UniProt Q9UJQ4, residues 1-1053)
Notes: 8-mer, flanks averaged, mean of replicates
Oligonucleotide = AATTAATG; result = 0.336
Oligonucleotide = CGTTATTA; result = 0.363
Oligonucleotide = CTTGAAGA; result = 0.143
Oligonucleotide = CATGGCGG; result = -0.272
Oligonucleotide = CGACACAA; result = -0.0861
Oligonucleotide = CATGCGAC; result = 0.00814
Oligonucleotide = ATTCGCGC; result = -0.0779
Oligonucleotide = GGGACCCA; result = -0.302
Oligonucleotide = GAGTCACA; result = -0.0279
Oligonucleotide = ACAGCTCA; result = -0.117
Oligonucleotide = TCCTAAGA; result = -0.0146
Oligonucleotide = ACCCACTA; result = -0.0129
Oligonucleotide = CTAATGGA; result = 0.0825
Oligonucleotide = CTACAGTA; result = 0.0988
Oligonucleotide = ATACAGCG; result = 0.112
Oligonucleotide = GACCCAAC; result = -0.169
Oligonucleotide = ATCAGCAG; result = 0.0185

Series 6 — target: CCNB1, cyclin fold, Cln2 fusion (human); technique: yeast growth competition, sequencing; sample: yeast; notes: strong parent motif; baseline: not given; reading: higher = stronger binding; endpoint: normalised enrichment score
Parent: E2F1 docking peptide (human); PPVKRRLDLETDH
Variant = H13E; result = 2.39
Variant = P2W; result = 0.184
Variant = P2R; result = 0.654
Variant = P2A; result = 0.146
Variant = R6I; result = 0.323
Variant = T11H; result = 0.63
Variant = D12W; result = 0.84
Variant = L7K; result = 0.3
Variant = T11V; result = 1.17
Variant = H13M; result = 1.84
Variant = L7F; result = 0.22
Variant = L7I; result = 0.79
Variant = H13S; result = 1.35
Variant = H13F; result = 0.765
Variant = V3K; result = 0.613
Variant = T11S; result = 1.82
Variant = H13G; result = 2.02
Variant = H13D; result = 2.76
Variant = D8M; result = 1.28
Variant = D12H; result = 0.318
Variant = P1H; result = 1.4
Variant = P2H; result = 1.24
Variant = T11D; result = 1.99
Variant = T11G; result = 1.19
Variant = H13V; result = 1.57

Excerpt of the above (series 6):
Variant = L7F; result = 0.22
Variant = L7I; result = 0.79
Variant = H13S; result = 1.35
Variant = H13F; result = 0.765
Variant = V3K; result = 0.613
Variant = T11S; result = 1.82
Variant = H13G; result = 2.02
Variant = H13D; result = 2.76
Variant = D8M; result = 1.28
Variant = D12H; result = 0.318
